Literature values as cited in several papers.

For `CC(C)(CO)c1cc2cc(NC(=O)C3(c4ccc5c(c4)OC(F)(F)O5)CC3)c(F)cc2n1C[C@@H](O)CO`, the fraction unbound was 0.009 (pregnant women, first trimester, 1-12 weeks gestation, maternal plasma).
The fraction absorbed of `O=C1Nc2ccc(Cl)cc2[C@@](C#CC2CC2)(C(F)(F)F)O1` is reported as 0.67.
Under “fraction unbound in plasma”, `CC(C)c1nc(N(C)S(C)(=O)=O)nc(-c2ccc(F)cc2)c1/C=C/[C@@H](O)C[C@@H](O)CC(=O)O` is recorded as 0.107 (plasma; Simcyp input parameter).
With `C[C@]1(c2nc3c(C(N)=O)cccc3[nH]2)CCCN1` the fraction absorbed was 1 (tablet vs solution).
The fraction absorbed of `CN(C)C(=O)c1cc2cnc(Nc3ccc(N4CCNCC4)cn3)nc2n1C1CCCC1` is reported as roughly 58.5% (estimated).
`CCC(C)n1ncn(-c2ccc(N3CCN(c4ccc(OCC5COC(Cn6cncn6)(c6ccc(Cl)cc6Cl)O5)cc4)CC3)cc2)c1=O` (stereo not drawn): “fraction unbound in plasma” 0.016 (plasma).
For `CC[C@@H](C(=O)Nc1ccc(C(N)=O)c(F)c1)n1cc(OC)c(-c2cc(Cl)ccc2-n2cc(C(F)(F)F)nn2)cc1=O`, “fraction excreted unchanged” read 9% (urine; concentration not given).
For `C[C@@H]1C[C@H]2[C@@H]3CCC4=CC(=O)C=C[C@]4(C)[C@@]3(F)[C@@H](O)C[C@]2(C)[C@@]1(O)C(=O)CO`, “fraction unbound in plasma” read 0.28 (plasma; Simcyp input parameter).
The fraction unbound of `Cc1c(C(=O)O)ccc2c3n(nc12)[C@@H]1[C@H](C3)N(CC2CC2)[C@@]2(C(=O)Nc3cc(Cl)ccc32)[C@H]1c1cccc(Cl)c1F` is reported as 0.022 (stem cell medium).
`Cc1nn(C)cc1S(=O)(=O)NC(=O)c1ccc(-n2ccc(OCC(C)(C)C(F)(F)F)n2)nc1N1C[C@@H](C)CC1(C)C` gave a fraction unbound of 0.399 (microsomal incubation; CYP2C9 Ki).
Under “fraction excreted in urine”, `C[C@@H](O)[C@H]1C(=O)N2C(C(=O)O)=C(S[C@@H]3CN[C@H](C(=O)N(C)C)C3)[C@H](C)[C@H]12` is recorded as 61% (healthy Chinese subjects).
`CN1CCC(COc2cnc(-c3cccc(Cn4nc(-c5cccc(C#N)c5)ccc4=O)c3)nc2)CC1` has a fraction absorbed of roughly 0.85.

Some of these lines once more:
Under “fraction unbound in plasma”, `CC(C)c1nc(N(C)S(C)(=O)=O)nc(-c2ccc(F)cc2)c1/C=C/[C@@H](O)C[C@@H](O)CC(=O)O` is recorded as 0.107 (plasma; Simcyp input parameter).
For `CC(C)(CO)c1cc2cc(NC(=O)C3(c4ccc5c(c4)OC(F)(F)O5)CC3)c(F)cc2n1C[C@@H](O)CO`, the fraction unbound was 0.009 (pregnant women, first trimester, 1-12 weeks gestation, maternal plasma).
